# Measurements from different studies.
# Each line is one published result; not all experiments were run side by side. ± marks the error that the study gave.
# BCHE: Cholinesterase (BCHE, Homo sapiens, UniProt P06276)
# Chain of UniProt P06276 (whole entry, looked up): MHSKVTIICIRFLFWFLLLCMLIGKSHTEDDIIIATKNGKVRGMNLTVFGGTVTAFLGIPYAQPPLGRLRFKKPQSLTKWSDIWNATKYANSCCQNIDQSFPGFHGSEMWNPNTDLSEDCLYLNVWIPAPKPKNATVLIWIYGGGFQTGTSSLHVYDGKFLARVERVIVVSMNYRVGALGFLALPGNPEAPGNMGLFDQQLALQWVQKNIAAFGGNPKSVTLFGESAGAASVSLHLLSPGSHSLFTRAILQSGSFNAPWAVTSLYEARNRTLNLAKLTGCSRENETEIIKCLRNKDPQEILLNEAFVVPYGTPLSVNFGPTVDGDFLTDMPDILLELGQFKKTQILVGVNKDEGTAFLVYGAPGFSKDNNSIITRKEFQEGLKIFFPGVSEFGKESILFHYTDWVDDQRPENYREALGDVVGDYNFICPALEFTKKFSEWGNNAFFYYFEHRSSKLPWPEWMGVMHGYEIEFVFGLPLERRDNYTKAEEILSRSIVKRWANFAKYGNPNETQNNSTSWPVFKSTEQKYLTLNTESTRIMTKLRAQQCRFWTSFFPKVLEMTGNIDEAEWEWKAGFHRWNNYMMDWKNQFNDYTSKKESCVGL
# gag-pol integrase: Gag-Pol polyprotein, integrase (gag-pol, Human immunodeficiency virus 1, UniProt P12497)
# ilvC: Ketol-acid reductoisomerase (NADP(+)) (ilvC, Mycobacterium tuberculosis, UniProt P9WKJ7)
# Chain of UniProt P9WKJ7 (whole entry, looked up): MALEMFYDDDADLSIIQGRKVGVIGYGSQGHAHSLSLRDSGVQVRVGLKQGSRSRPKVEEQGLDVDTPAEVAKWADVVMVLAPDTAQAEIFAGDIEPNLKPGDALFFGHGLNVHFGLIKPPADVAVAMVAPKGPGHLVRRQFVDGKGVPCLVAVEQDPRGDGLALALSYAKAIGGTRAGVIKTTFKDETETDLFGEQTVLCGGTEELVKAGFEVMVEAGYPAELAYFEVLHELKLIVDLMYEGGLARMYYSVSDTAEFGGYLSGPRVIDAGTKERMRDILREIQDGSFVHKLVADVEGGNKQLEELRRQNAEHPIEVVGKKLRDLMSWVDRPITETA
# DRD3: D(3) dopamine receptor (DRD3, Homo sapiens, UniProt P35462)
# Chain of UniProt P35462 (whole entry, looked up): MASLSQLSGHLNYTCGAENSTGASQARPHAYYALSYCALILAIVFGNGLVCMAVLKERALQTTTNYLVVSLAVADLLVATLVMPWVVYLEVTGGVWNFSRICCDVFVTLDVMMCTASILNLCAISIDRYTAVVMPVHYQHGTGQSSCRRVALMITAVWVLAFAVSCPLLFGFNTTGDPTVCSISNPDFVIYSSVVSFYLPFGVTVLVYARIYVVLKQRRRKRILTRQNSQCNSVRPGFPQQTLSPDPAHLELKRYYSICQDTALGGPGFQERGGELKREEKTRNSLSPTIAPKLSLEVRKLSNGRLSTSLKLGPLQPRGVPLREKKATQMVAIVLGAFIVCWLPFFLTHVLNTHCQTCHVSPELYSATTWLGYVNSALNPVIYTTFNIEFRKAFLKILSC
# gag-pol integrase with LEDGF/p75: Gag-Pol polyprotein, integrase with LEDGF/p75 (gag-pol, Human immunodeficiency virus 1, UniProt P12497)
# Chain of UniProt Q61327 (whole entry, looked up): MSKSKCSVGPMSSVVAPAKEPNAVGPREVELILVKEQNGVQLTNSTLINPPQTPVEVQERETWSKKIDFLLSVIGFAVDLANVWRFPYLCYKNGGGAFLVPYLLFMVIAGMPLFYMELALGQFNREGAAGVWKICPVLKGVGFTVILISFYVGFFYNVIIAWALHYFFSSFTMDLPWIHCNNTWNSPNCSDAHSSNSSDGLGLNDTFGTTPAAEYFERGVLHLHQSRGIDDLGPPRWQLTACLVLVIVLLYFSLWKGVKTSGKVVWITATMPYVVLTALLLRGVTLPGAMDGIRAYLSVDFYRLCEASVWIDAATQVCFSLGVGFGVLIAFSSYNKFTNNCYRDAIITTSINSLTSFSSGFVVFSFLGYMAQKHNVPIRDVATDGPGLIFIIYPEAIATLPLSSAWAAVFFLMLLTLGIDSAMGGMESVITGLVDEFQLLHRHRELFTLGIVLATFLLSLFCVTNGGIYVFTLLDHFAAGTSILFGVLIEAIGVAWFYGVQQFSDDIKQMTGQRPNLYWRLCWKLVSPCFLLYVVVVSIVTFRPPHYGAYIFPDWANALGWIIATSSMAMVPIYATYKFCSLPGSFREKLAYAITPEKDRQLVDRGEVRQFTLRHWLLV
# Chain of UniProt Q9UIA9 (whole entry, looked up): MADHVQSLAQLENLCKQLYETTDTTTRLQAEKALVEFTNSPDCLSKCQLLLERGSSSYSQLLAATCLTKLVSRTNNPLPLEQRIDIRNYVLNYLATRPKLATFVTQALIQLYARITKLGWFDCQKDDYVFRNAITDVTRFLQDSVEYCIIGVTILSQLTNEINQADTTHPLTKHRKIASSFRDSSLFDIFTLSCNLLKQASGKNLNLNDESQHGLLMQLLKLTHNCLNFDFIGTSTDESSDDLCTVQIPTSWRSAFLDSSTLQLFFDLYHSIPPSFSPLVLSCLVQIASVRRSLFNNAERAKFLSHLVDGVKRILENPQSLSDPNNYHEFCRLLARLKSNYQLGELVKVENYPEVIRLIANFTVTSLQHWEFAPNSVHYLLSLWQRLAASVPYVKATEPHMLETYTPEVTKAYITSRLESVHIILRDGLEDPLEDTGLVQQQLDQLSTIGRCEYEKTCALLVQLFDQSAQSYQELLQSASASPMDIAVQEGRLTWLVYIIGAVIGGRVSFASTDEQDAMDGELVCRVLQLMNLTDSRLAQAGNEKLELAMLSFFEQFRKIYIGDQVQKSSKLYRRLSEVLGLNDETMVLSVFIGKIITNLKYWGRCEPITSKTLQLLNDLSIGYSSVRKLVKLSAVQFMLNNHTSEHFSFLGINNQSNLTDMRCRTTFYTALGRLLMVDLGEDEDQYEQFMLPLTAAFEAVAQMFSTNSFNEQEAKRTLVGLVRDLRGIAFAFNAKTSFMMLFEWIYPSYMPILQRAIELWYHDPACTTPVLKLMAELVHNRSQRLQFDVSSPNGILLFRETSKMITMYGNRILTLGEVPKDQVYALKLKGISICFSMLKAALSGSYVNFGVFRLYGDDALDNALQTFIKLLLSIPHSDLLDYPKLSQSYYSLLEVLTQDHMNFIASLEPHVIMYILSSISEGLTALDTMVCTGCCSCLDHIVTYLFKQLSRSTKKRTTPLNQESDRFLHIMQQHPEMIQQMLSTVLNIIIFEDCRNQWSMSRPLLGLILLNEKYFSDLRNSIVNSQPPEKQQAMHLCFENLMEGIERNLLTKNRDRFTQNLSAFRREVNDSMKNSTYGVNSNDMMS
SMILES,target or system,assay,system,setting,quantity,value
NCCc1ccc(Oc2ccc(O)cc2)c(I)c1,"Slc6a3 (Mus musculus, UniProt Q61327)",binding,"TAAR1 knock-out mice, striatal synaptosomes",with: [3H]CFT 1 nM,IC50,0.81 µM
C[C@H]1CN(c2n[nH]c3nc(N[C@H]4CC[C@H](NS(=O)(=O)CCC(F)(F)F)CC4)ncc23)CCO1,"Exportin-7 (Homo sapiens, UniProt Q9UIA9)",biochemical,,,IC50,≥ 20 µM
CCCN(CCC)CCc1c[nH]c2ccccc12,BCHE,"inhibitor, fluorometric",,,IC50,4.06 ± 2.51 µM
Oc1ccc(Br)cc1/C=N/Nc1cccc2cccnc12,gag-pol integrase,"3'-processing activity, inhibitor",,wild-type integrase,IC50,> 100 µM
O=C(CN1C2=NCCN2c2ccccc21)c1ccc(-c2ccccc2)cc1,BCHE,inhibitor,,,IC50,4.68 ± 0.3 µM
CN1CCC(=C2c3ccccc3CC(=O)c3sccc32)CC1,Plasmodium falciparum,,GB4,,IC50,3.16 µM
O=c1[nH]c2sc(-c3ccccc3)nc2c(=O)n1O,ilvC,inhibitor,,"30 min preincubation, with: NADPH",Ki,13.8 ± 2 µM
COc1cc(C[C@@H](C)N)c(OC)cc1I,Plasmodium falciparum,,Dd2,,IC50,10 µM
Cc1[nH]c(C)c(S(=O)(=O)Nc2ccc(S(F)(F)(F)(F)F)cc2)c1C(=O)N1CCC(F)(F)C1,DRD3,"β-arrestin recruitment, allosteric modulator, operational model of allostery",,with: dopamine,Kb,710 nM
COc1ccccc1N1CCN(/N=C/c2ccc(Cl)c([N+](=O)[O-])c2)CC1,gag-pol integrase,"strand transfer activity, inhibitor",,wild-type integrase,IC50,> 100 µM
C[C@@H](C1=C(CCN(C)C)Cc2ccccc21)c1ccccn1,BCHE,inhibitor,,with Triton,IC50,5.99 ± 1.5 µM
C/C(=N\Nc1ccc(S(=O)(=O)Nc2ccccc2)cc1[N+](=O)[O-])c1cc(O)ccc1O,gag-pol integrase,"3'-processing activity, inhibitor",,wild-type integrase,IC50,> 100 µM
O=c1[nH]c2sc(-c3ccncc3)nc2c(=O)n1O,ilvC,inhibitor,,"30 min preincubation, with: NADPH",Ki,23.9 ± 6.3 µM
C[N+](C)(CCOc1ccccc1)Cc1cccs1,BCHE,inhibitor,,with Triton,IC50,10 ± 3.22 µM
O=c1[nH]c2nc(-c3ccccc3)sc2c(=O)n1O,ilvC,,,with: NADPH pre-incubation 30 min,Ki,0.0494 ± 0.005 µM
O=C(N/N=C/c1c(O)ccc2ccccc12)c1n[nH]c2c1CCC2,gag-pol integrase,"strand transfer activity, inhibitor",,wild-type integrase,IC50,> 100 µM
CC(C)(C)C1CCN(C(=O)n2ncc(C(O)(c3ccccc3)c3ccccc3)n2)CC1,BCHE,"inhibitor, fluorometric",,,IC50,2.24 ± 0.72 µM
COc1cc(Nc2ncc(F)c(Nc3ccc4c(n3)NC(=O)C(C)(C)O4)n2)cc(OC)c1OC,DRD3,,,,IC50,> 10 µM
CC(C)c1nc2c(=O)n(O)c(=O)[nH]c2s1,ilvC,inhibitor,,"30 min preincubation, with: NADPH",Ki,10.9 ± 1 µM
O=C(N/N=C/c1cccnc1)C1=NNC2CCCCC12 (stereo not drawn),gag-pol integrase with LEDGF/p75,"LEDGF/p75-integrase interaction, inhibitor, AlphaScreen",,,IC50,> 50 µM
COc1ccc(NC(=O)N2CCCCN3C[C@H](c4ccc(C#Cc5ccccc5)cc4)[C@@H]3C2)cc1,Cryptosporidium parvum,luciferase,"HCT-8, transgenic PheRS L482V mutant",48 h,EC50,372 nM
CCOC(=O)C(=O)c1csc(NC=O)n1,BCHE,inhibitor,,,IC50,3.85 µM
CCOc1cccc(/C=N/NC(=O)c2n[nH]c3c2CCC3)c1O,gag-pol integrase,"strand transfer activity, inhibitor",,wild-type integrase,IC50,> 100 µM
CC[C@H](NC(=O)[C@H](CS(=O)(=O)CC1CC1)N[C@@H](c1ccc(F)cc1)C(F)(F)F)C(=O)C(=O)NC1CC1,BCHE,inhibitor,,with Triton,IC50,19.3 µM
COc1c(Cl)cc(Cl)cc1/C=N/NC(=O)c1ccncc1,gag-pol integrase with LEDGF/p75,"LEDGF/p75-integrase interaction, inhibitor, AlphaScreen",,,IC50,> 50 µM
Nc1c2c(nc3c1CCC3)CCCC2,BCHE,inhibitor,,with Triton,IC50,0.96 ± 0.66 µM
O=C(N/N=C/c1ccccc1O)c1cnccn1,gag-pol integrase,"strand transfer activity, inhibitor",,wild-type integrase,IC50,> 100 µM
